Assay results pooled from the literature.
Lines come from different studies, so protocols differ. Values joined by “and” are separate records of one study, mostly repeats; a detail may differ. ± gives the spread as reported.
UniProt O75385, sequence (whole entry, looked up): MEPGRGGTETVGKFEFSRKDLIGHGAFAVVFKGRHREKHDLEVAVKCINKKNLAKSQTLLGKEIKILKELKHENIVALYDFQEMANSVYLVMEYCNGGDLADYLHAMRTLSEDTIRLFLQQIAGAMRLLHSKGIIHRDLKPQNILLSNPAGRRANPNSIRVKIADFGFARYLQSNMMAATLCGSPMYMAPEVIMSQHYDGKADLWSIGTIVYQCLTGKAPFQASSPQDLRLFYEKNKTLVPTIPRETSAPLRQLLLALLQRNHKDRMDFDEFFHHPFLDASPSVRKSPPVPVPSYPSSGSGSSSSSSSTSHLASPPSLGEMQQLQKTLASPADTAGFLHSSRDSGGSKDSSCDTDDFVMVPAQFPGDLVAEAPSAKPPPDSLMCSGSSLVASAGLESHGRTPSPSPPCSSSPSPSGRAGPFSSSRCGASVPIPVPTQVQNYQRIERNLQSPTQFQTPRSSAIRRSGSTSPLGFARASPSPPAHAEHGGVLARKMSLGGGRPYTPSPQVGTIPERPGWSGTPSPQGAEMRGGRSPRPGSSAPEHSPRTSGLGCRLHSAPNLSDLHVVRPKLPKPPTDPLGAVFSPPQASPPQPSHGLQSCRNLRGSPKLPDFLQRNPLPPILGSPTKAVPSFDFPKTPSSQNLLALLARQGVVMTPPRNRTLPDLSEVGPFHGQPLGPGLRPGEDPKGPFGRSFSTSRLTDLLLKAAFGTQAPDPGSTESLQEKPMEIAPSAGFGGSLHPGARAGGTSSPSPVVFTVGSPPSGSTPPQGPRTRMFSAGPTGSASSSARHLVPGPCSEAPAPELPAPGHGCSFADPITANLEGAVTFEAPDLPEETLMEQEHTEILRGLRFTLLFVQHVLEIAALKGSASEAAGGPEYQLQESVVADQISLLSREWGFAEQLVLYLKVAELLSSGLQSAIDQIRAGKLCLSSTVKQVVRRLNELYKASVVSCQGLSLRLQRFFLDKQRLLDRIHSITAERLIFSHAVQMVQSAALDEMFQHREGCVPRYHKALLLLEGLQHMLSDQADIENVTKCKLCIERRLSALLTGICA
UniProt O96017, sequence (whole entry, looked up): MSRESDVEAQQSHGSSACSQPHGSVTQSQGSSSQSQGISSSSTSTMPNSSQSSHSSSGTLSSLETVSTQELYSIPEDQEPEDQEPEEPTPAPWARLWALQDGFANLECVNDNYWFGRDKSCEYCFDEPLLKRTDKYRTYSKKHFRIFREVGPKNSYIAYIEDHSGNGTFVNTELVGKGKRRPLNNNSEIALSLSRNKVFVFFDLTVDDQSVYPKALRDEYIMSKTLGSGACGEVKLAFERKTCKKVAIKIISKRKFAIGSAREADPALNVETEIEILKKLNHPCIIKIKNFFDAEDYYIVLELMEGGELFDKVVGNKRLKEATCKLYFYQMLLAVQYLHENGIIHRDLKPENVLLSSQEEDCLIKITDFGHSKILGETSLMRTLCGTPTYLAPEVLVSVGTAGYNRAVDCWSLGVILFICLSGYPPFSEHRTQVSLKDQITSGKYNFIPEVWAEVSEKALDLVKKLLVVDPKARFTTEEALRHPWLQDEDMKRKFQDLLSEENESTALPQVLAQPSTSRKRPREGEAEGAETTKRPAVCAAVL

Compound | target or system | test | test system | conditions | how to read | measurement | value
CC(C)[C@H]1NC(=O)C[C@H]2/C=C/CCSSC[C@@H](NC1=O)C(=O)N[C@H](Cc1cccc3ccccc13)C(=O)NCC(=O)O2 | CHEK2 (Homo sapiens, UniProt O96017) | enzyme activity, inhibitor |  | 10 µM |  | inhibition | -4.7%
O=C(O)c1ccc(-c2nc(-c3ccccc3Cl)c3sccn23)cc1 | human CD34+ hematopoietic stem cells | megakaryocyte differentiation, flow cytometry, refers to: CD41a |  | 10 µM, day 10, together with: TPO | baseline: control | fold change | 1 fold and 1.02 fold and 1.01 fold
O=C(C[Se]C(=O)c1cc2ccccc2s1)Nc1cccc(C(F)(F)F)c1 | NCI60 ovarian subpanel | cytotoxicity, inhibitor |  | five-dose |  | CC50 | 8.08 µM
COc1ccccc1-c1n[nH]c2nc(NC3CCN(C(=O)Cc4ccc(F)cc4F)CC3)ncc12 |  | bead binding, competition bead pull-down, refers to: LINJ.26.0600 | Leishmania donovani axenic amastigote extract | 10 µM | baseline: vehicle | relative abundance | 0.67
CC(C)[C@H](NC(=O)[C@H](CCCNC(=N)N)NC(=O)[C@@H]1CCCN1C(=O)[C@@H](NC(=O)[C@H](C)NC(=O)[C@H](Cc1ccc(O)cc1)NC(=O)[C@H](CCC(N)=O)NC(=O)[C@H](CCCCN)NC(=O)[C@H](CCCNC(=N)N)NC(=O)[C@@H]1CCCN1C(=O)[C@H](CCC(=O)O)NC(=O)[C@@H](NC(=O)[C@H](C)N)[C@@H](C)O)[C@@H](C)O)C(=O)N[C@@H](Cc1ccccc1)C(=O)N[C@@H](Cc1c[nH]c2ccccc12)C(=O)N[C@H](C(=O)N[C@@H](CC(=O)O)C(=O)N[C@@H](C)C(=O)N1CCC[C@H]1C(=O)NCC(=O)NCCOCCOCCOCCOCCOCCOCCOCCOCCOCCOCCOCCOCCC(=O)N[C@@H](CS)C(N)=O)[C@@H](C)O | H1155 lung large cell carcinoma | cell binding, phage binding, refers to: output/input phage |  | 10 min, 37 °C | baseline: control phage | selectivity ratio | 0.56 ± 0.19
O=C(C[Se]C(=O)C12CC3CC(CC(C3)C1)C2)Nc1cccc(C(F)(F)F)c1 | NCI60 prostate subpanel (PC-3, DU-145) | cytotoxicity, inhibitor |  | five-dose |  | CC50 | 32.8 µM
NCCCO.O=C(O)C(Cl)Cl | Chenopodium album | herbicidal activity |  | 15 mg/mL, 21 days, pre-emergence greenhouse |  | inhibition | 0%
CS(C)(=O)=Nc1ccc(-c2ccc(-c3nc4cc(O[C@@H]5CO[C@H]6[C@@H]5OC[C@H]6O)[nH]c4cc3F)cc2)cc1 | EGFR (Homo sapiens, UniProt P00533, T790M) | enzyme activity, inhibitor |  | 10 µM |  | inhibition | -3%
COc1ccccc1-c1ccncc1C(=O)Nc1nnc(OCc2ccc(Cl)cc2)s1 | RPE-1 BRCA1 WT parental |  |  | 2 µM, run 1 | baseline: untreated | colony survival | 88.9%
O=C(C[Se]C(=O)c1ccccc1)Nc1cccc(C(F)(F)F)c1 | NCI60 ovarian subpanel | cell growth |  | 10 µM, 48 h, one-dose |  | mean growth percent | -70.2%
CC(C)(C)C(=O)OCOP(=O)(OCOC(=O)C(C)(C)C)C1CCCN(O)C1=O (stereo not shown) | OVCAR-8 |  |  |  |  | log TGI | -5.05 log M
CSCC[C@H](NC(=O)[C@@H](NC(=O)[C@H](CCC(N)=O)NC(=O)[C@H](CO)NC(=O)[C@@H](N)C(C)C)[C@@H](C)O)C(=O)N[C@@H](CCCNC(=N)N)C(=O)N[C@@H](CCC(N)=O)C(=O)N[C@H](C(=O)N[C@@H](C)C(=O)N[C@H](C(=O)N1CCC[C@H]1C(=O)N[C@@H](CC(C)C)C(=O)N[C@@H](CC(C)C)C(=O)N[C@@H](Cc1c[nH]c2ccccc12)C(=O)N[C@@H](Cc1ccccc1)C(=O)N[C@@H](Cc1c[nH]c2ccccc12)C(=O)N[C@H](C(=O)NCC(=O)N[C@@H](CO)C(=O)N[C@@H](CC(C)C)C(=O)NCCOCCOCCOCCOCCOCCOCCOCCOCCOCCOCCOCCOCCC(=O)N[C@@H](CS)C(N)=O)[C@@H](C)O)C(C)C)[C@@H](C)O | H2087 | phage binding |  | 10 min, 37 °C | baseline: control phage | selectivity ratio | 39 ± 13
Cc1cc(Oc2nc(N3CC[C@@H](c4ccncc4)C3)ncc2F)[nH]n1 | 786-O | cell proliferation |  |  |  | IC50 | 55 µM
CC(C)C[C@H](NC(=O)[C@H](CC(=O)O)NC(=O)CNC(=O)[C@@H](N)CCCNC(=N)N)C(=O)N[C@@H](C)C(=O)N[C@H](C(=O)N[C@@H](CC(C)C)C(=O)N[C@@H](CCCNC(=N)N)C(=O)N[C@@H](CCC(N)=O)C(=O)N[C@@H](CC(C)C)C(=O)N[C@@H](C)C(=O)N[C@@H](CCC(N)=O)C(=O)N[C@@H](CCC(=O)O)C(=O)N[C@@H](CC(=O)O)C(=O)NCC(=O)N[C@H](C(=O)N[C@H](C(=O)NCC(=O)N[C@H](C(=O)N[C@@H](CCCNC(=N)N)C(=O)NCCOCCOCCOCCOCCOCCOCCOCCOCCOCCOCCOCCOCCC(=O)N[C@@H](CS)C(N)=O)C(C)C)C(C)C)C(C)C)[C@@H](C)O | H2087 | phage binding |  | 10 min, 37 °C | baseline: control phage | selectivity ratio | 2.9 ± 1.4
COc1ccc2c(c1)c(CC(=O)[Se]CC(=O)Nc1cccc(C(F)(F)F)c1)c(C)n2C(=O)c1ccc(Cl)cc1 | NCI60 renal subpanel | cytotoxicity, inhibitor |  | five-dose |  | CC50 | 8.52 µM
O=C1NC2(CC2)COc2ncc(F)cc2[C@H]2COCCN2c2ccn3ncc1c3n2 |  |  | Sprague-Dawley rat, male, heart | oral, 5 mg/kg/day, 4 weeks dosing, end of recovery |  | organ-to-brain weight ratio | 70 ± 3.9%
CN(C)[C@H]1C[C@@]23CC[C@@]4(O2)C(=CC[C@]2(C)[C@@H](c5ccc6ccncc6c5)CC[C@H]24)C=C3[C@@H](O)[C@@H]1O | ULK1 (Homo sapiens, UniProt O75385) | ATP probe labelling, inhibitor, KiNativ profiling |  | 0.1 µM |  | inhibition | 4.9%
CC(=O)NCSC[C@H](NC(=O)[C@@H]1CCCN1C(=O)[C@H](C)NC(=O)[C@@H](NC(=O)CNC(=O)[C@@H](NC(=O)[C@H](Cc1c[nH]c2ccccc12)NC(=O)[C@H](C)NC(=O)CNC(=O)[C@H](CO)NC(=O)[C@H](C)NC(=O)[C@@H]1CCCN1C(=O)[C@H](Cc1c[nH]c2ccccc12)NC(=O)[C@H](C)NC(=O)[C@H](C)NC(=O)[C@@H](N)Cc1ccc(O)cc1)[C@@H](C)O)[C@@H](C)O)C(=O)N[C@@H](CO)C(=O)N[C@@H](C)C(=O)NCC(=O)N[C@H](C(=O)NCCOCCOCCOCCOCCOCCOCCOCCOCCOCCOCCOCCOCCC(=O)N[C@@H](CS)C(N)=O)[C@@H](C)O | H1666 lung adenocarcinoma | cell binding, phage binding, refers to: output/input phage |  | 10 min, 37 °C | baseline: control phage | selectivity ratio | 0.86 ± 0.15
CC(C)CC(O)(CC(C)C)c1cn(C(=O)N2CCCC2)nn1 | mouse T-cells | SILAC proteomics, refers to: NDRG1 |  | 1 nM, 6 h, unit not given | baseline: DMSO | protein level | 0.98

Some of these lines once more:
Compound | target or system | test | test system | conditions | how to read | measurement | value
CS(C)(=O)=Nc1ccc(-c2ccc(-c3nc4cc(O[C@@H]5CO[C@H]6[C@@H]5OC[C@H]6O)[nH]c4cc3F)cc2)cc1 | EGFR (Homo sapiens, UniProt P00533, T790M) | enzyme activity, inhibitor |  | 10 µM |  | inhibition | -3%
O=C(C[Se]C(=O)c1ccccc1)Nc1cccc(C(F)(F)F)c1 | NCI60 ovarian subpanel | cell growth |  | 10 µM, 48 h, one-dose |  | mean growth percent | -70.2%
CC(C)(C)C(=O)OCOP(=O)(OCOC(=O)C(C)(C)C)C1CCCN(O)C1=O (stereo not shown) | OVCAR-8 |  |  |  |  | log TGI | -5.05 log M
